{"data": "Published values from different studies", "note": "A part holds a random share of what one study measured.", "chain of UniProt P21918 (whole entry, looked up)": "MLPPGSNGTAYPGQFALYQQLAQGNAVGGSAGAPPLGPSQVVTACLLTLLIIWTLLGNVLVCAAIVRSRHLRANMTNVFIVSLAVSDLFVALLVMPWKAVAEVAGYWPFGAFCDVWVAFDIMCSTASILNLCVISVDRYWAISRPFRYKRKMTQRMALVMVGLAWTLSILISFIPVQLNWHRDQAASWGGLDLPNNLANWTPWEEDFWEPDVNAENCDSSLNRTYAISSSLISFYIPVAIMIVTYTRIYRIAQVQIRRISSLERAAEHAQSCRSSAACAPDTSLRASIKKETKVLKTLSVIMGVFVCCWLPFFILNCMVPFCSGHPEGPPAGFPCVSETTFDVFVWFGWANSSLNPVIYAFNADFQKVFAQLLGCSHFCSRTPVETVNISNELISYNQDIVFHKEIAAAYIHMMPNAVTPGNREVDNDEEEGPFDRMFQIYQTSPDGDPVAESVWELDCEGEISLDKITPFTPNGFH", "chain of UniProt P41143 (whole entry, looked up)": "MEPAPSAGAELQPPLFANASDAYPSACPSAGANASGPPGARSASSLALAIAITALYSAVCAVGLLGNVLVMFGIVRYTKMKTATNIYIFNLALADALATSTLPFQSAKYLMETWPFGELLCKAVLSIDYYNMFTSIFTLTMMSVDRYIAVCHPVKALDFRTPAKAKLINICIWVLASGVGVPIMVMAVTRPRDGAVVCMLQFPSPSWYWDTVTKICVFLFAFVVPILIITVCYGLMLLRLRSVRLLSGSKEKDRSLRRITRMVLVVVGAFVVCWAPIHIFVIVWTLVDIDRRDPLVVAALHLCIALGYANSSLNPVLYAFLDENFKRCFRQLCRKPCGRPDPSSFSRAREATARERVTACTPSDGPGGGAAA", "chain of UniProt P20309 (whole entry, looked up)": "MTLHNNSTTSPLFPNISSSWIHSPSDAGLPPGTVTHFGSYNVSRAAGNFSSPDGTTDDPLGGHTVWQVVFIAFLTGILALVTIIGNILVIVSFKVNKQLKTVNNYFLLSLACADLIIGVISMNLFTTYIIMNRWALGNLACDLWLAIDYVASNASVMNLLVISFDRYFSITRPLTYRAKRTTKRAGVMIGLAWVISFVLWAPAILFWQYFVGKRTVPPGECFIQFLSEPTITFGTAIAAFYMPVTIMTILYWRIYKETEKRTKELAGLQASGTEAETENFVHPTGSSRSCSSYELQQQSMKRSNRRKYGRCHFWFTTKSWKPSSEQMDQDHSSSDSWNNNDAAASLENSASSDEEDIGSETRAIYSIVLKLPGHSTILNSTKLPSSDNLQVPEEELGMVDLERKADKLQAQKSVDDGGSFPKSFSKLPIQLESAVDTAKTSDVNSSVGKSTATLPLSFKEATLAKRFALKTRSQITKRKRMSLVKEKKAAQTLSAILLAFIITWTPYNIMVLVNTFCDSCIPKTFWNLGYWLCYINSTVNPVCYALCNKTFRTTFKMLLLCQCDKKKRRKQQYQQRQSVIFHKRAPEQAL", "chain of UniProt P35372 (whole entry, looked up)": "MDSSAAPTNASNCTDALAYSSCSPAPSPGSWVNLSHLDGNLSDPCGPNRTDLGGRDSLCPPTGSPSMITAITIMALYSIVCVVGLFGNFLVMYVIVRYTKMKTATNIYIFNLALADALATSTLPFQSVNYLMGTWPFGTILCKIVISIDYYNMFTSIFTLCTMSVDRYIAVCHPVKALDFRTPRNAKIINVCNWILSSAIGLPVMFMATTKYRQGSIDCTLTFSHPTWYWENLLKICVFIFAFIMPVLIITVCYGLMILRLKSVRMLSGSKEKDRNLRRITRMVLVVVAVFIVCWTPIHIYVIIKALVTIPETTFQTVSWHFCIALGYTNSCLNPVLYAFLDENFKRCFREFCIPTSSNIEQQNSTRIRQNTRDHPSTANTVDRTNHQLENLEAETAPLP", "chain of UniProt P41145 (whole entry, looked up)": "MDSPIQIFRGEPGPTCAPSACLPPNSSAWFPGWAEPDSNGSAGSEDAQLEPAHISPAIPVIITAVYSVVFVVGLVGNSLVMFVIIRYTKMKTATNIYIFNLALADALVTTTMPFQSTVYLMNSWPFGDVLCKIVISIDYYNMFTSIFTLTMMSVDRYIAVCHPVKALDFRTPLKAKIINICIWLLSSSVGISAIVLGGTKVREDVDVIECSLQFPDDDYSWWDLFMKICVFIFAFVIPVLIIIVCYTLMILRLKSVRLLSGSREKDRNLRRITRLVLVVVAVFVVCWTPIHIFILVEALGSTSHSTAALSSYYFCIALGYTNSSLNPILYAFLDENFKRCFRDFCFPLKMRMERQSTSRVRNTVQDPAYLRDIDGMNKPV", "chain of UniProt P11229 (whole entry, looked up)": "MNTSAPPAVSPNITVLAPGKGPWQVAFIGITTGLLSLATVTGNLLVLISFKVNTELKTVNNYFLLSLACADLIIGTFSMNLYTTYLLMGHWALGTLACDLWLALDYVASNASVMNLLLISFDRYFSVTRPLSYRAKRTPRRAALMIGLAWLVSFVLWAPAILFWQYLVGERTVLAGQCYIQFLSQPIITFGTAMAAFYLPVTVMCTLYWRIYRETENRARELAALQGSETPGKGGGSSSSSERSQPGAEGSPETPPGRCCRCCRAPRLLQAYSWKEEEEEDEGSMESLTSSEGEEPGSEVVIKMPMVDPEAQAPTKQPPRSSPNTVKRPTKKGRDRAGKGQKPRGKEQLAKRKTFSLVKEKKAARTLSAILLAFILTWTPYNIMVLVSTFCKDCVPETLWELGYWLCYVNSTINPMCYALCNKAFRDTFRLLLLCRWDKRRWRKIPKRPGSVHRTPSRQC"}
{"data": "Study 1", "Compound": "COc1ccc(-c2c(Nc3ccccn3)[nH]c3c(C4=CCCCC4)c(-c4ccccc4)nn3c2=O)cc1", "species": "patients, advanced malignancies", "route": "oral", "dose": "dose not given"}
{"notes": "grade 3 or higher Thrombocytopenia", "patients with adverse event [%]": 5}
{"notes": "treatment-emergent Vomiting", "patients with adverse event [%]": 17.5}
{"notes": "grade 3 or higher Anaemia", "patients with adverse event [%]": 10}
{"notes": "treatment-emergent Hyperbilirubinaemia", "patients with adverse event [%]": 12.5}
{"notes": "treatment-emergent Anaemia", "patients with adverse event [%]": 20}
{"notes": "treatment-emergent Pyrexia", "patients with adverse event [%]": 12.5}
{"notes": "treatment-emergent Constipation", "patients with adverse event [%]": 17.5}
{"notes": "treatment-emergent Anxiety", "patients with adverse event [%]": 10}
{"notes": "treatment-emergent Dehydration", "patients with adverse event [%]": 12.5}
{"notes": "treatment-emergent Fatigue", "patients with adverse event [%]": 42.5}
{"data": "Study 2", "SMILES": "CCOc1cc(N2C3COCC2CN(C(=O)[C@H]2C[C@H](O)CN2c2ccc(Cl)cc2)C3)ccc1Cl", "effect on": "cell-free assay", "tested at": "10 µM"}
{"target": "OPRM1 (Homo sapiens, UniProt P35372)", "inhibition [%]": 5.82}
{"target": "CHRM1 (Homo sapiens, UniProt P11229)", "inhibition [%]": -5.67}
{"target": "CHRM3 (Homo sapiens, UniProt P20309)", "inhibition [%]": 8.61}
{"target": "OPRK1 (Homo sapiens, UniProt P41145)", "inhibition [%]": 53.6}
{"target": "OPRD1 (Homo sapiens, UniProt P41143)", "inhibition [%]": 10.3}
{"target": "DRD5 (Homo sapiens, UniProt P21918)", "inhibition [%]": 2.54}
{"data": "Study 3", "target": "CRBN/Zinc finger protein Helios (Homo sapiens, UniProt Q96SW2+Q9UKS7)", "mode": "degrader", "method": "HiBiT", "cells": "HEK293", "tested at": "41.15 nM", "chain of UniProt Q9UKS7 (whole entry, looked up)": "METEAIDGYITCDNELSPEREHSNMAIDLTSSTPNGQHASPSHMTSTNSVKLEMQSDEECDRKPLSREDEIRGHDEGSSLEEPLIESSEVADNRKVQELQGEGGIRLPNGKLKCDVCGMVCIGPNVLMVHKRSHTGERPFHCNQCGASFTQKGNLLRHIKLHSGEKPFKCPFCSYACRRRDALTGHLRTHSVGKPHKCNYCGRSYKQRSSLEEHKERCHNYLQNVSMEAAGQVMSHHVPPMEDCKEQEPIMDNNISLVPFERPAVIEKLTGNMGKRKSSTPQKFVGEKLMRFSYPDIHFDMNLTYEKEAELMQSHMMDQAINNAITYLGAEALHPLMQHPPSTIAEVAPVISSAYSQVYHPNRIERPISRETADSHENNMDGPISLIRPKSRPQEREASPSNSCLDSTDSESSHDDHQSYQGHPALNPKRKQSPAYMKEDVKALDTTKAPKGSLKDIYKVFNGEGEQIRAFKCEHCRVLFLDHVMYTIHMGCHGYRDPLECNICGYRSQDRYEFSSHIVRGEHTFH", "chain of UniProt Q96SW2 (whole entry, looked up)": "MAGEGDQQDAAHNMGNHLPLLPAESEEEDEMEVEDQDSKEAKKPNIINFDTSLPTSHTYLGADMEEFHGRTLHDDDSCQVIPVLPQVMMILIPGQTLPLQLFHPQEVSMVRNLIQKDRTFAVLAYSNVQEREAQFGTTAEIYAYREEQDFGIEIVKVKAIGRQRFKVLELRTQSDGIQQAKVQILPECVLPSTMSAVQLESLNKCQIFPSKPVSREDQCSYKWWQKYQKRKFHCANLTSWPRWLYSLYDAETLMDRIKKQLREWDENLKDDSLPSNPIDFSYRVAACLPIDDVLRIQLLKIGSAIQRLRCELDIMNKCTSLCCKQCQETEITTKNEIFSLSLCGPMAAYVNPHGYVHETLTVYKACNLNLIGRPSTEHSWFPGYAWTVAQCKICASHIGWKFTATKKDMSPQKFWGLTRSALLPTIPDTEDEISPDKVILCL"}
{"SMILES": "O=C1CCC(N2Cc3c(ccc4c3OCC43CCCN(Cc4ccccc4)CC3)C2=O)C(=O)N1 (stereo not shown)", "protein remaining": "94.9%"}
{"SMILES": "O=C1CCC(N2Cc3c(ccc4c3OCC43CCN(CC4CCCCC4)CC3)C2=O)C(=O)N1 (stereo not shown)", "protein remaining": "57.3%"}
{"SMILES": "O=C1CCC(N2Cc3c(ccc4c3OCC43CCN(Cc4ccccc4)C3)C2=O)C(=O)N1 (stereo not shown)", "protein remaining": "78.3%"}
{"SMILES": "O=C1CCC(N2Cc3c(ccc4c3OCC43CCN(Cc4ccsc4)CC3)C2=O)C(=O)N1 (stereo not shown)", "protein remaining": "36.8%"}
{"SMILES": "O=C1CCC(N2Cc3c(ccc4c3OCC43CCN(Cc4ccccc4)CC3(F)F)C2=O)C(=O)N1 (stereo not shown)", "protein remaining": "67.8%"}
{"SMILES": "O=C1CCC(N2Cc3c(ccc4c3OCC43CCN(Cc4ccccn4)CC3)C2=O)C(=O)N1 (stereo not shown)", "protein remaining": "60.9%"}
{"data": "Study 4", "organism": "Sarcocystis neurona", "effect on": "parasite growth", "tested at": "10 µM", "time": "96 h"}
{"Compound": "CC(C)CC(N(C)C)C1(c2ccc(Cl)cc2)CCC1 (stereo not shown)", "inhibition": "-19.3%"}
{"Compound": "CC(O)(CS(=O)(=O)c1ccc(F)cc1)C(=O)Nc1ccc(C#N)c(C(F)(F)F)c1 (stereo not shown)", "inhibition": "-15.7%"}
{"Compound": "CC[C@@H](C(N)=O)N1CCCC1=O", "inhibition": "-14%"}
{"Compound": "C[C@]12CC[C@H](O)CC1=CC[C@@H]1[C@@H]2CC[C@]2(C)C(=O)CC[C@@H]12", "inhibition": "-7.2%"}
{"Compound": "C=CCN1CC[C@]23c4c5ccc(O)c4O[C@H]2C(=O)CC[C@@]3(O)[C@H]1C5", "inhibition": "-9.6%"}
{"Compound": "NC(=NCc1ccc(Cl)cc1)SCCCc1cnc[nH]1", "inhibition": "-0.8%"}
{"note": "Repeated from above (study 4):"}
{"Compound": "CC[C@@H](C(N)=O)N1CCCC1=O", "inhibition": "-14%"}
{"Compound": "C=CCN1CC[C@]23c4c5ccc(O)c4O[C@H]2C(=O)CC[C@@]3(O)[C@H]1C5", "inhibition": "-9.6%"}
{"Compound": "CC(C)CC(N(C)C)C1(c2ccc(Cl)cc2)CCC1 (stereo not shown)", "inhibition": "-19.3%"}
